Experimental data from different studies.
Each line is one published result; not all experiments were run side by side. ± gives the spread as reported.
UniProt P80457, sequence (whole entry, looked up): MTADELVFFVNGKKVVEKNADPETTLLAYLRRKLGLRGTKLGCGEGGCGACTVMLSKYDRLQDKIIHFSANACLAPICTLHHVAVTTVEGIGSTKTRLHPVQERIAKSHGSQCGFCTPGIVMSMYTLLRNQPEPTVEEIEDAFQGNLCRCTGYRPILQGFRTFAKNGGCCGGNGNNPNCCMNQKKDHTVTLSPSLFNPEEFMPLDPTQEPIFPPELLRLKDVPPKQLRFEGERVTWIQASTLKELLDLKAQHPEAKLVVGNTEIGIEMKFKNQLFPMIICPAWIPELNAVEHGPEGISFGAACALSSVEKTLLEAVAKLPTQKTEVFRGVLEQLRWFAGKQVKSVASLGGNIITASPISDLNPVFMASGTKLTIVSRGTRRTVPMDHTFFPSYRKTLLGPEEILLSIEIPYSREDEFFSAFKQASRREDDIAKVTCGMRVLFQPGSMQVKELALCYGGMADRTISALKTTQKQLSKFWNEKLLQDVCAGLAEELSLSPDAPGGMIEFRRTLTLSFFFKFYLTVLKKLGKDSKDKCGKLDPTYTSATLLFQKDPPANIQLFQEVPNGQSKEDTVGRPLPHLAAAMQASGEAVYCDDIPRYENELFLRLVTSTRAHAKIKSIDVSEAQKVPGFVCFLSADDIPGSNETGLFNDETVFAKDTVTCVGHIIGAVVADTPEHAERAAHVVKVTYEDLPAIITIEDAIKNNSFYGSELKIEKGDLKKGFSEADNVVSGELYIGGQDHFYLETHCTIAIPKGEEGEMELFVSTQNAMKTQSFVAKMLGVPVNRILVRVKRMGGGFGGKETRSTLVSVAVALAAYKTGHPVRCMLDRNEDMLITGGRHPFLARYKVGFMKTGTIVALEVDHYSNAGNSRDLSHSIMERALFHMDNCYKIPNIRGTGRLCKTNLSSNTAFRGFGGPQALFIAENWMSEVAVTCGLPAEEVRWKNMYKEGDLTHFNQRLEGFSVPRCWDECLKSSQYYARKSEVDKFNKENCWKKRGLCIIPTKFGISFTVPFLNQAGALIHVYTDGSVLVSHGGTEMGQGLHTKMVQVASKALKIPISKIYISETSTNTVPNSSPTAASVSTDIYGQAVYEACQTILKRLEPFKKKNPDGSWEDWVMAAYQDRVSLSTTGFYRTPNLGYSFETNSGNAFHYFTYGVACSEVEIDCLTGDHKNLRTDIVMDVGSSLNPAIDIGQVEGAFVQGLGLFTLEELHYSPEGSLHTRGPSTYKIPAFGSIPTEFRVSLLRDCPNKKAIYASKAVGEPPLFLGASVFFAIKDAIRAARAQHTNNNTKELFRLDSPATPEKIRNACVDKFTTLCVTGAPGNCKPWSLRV
UniProt Q969G3, sequence (whole entry, looked up): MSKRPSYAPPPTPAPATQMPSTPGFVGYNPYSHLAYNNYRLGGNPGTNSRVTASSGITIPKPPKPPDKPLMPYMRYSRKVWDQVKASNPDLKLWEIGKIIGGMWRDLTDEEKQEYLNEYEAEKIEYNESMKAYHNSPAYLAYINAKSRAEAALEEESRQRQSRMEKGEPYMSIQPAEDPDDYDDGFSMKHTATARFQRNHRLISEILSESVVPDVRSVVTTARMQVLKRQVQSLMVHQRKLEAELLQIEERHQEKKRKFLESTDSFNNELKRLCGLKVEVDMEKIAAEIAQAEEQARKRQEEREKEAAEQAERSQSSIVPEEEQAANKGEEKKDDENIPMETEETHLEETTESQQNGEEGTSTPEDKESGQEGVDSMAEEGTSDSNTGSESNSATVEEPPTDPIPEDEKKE

SMILES	target or system	test	test system	conditions	how to read	endpoint	result
C[C@]1(CO)Cc2ncn(-c3ccc(C#N)c(Cl)c3)c2C(=O)O1			human, plasma	80 mg, first dose fasted		half-life	4.8 h
COc1cccc2c1CCCC2CCCN1CCN(C2CCCCC2)CC1 (stereo not shown)			CD-1 mouse, male, plasma	intraperitoneal, 1 mg/kg		half-life	3.33 h
[Cl][Ru-]([Cl])([Cl])[Cl].[Na+].c1ccc2[nH]ncc2c1.c1ccc2[nH]ncc2c1		ICP-MS, measured: total ruthenium	advanced solid tumour patients, plasma	iv infusion, 160 mg/m2, cycle 1 cohort mean		half-life	182 h
Cn1ncc(-c2nc(N[C@H]3CC[C@H](N)CC3)ncc2Cl)c1CC1CC1		HPLC-MS/MS	patients, plasma	oral, 8 mg, day 5		half-life	45 h
COc1cc2c(cc1OC)CN(CCc1ccc(NC(=O)c3cccc4c(=O)c5cccc(OC)c5[nH]c34)cc1)CC2			CD-1 mouse, male, lung	intraperitoneal, 3 mg/kg		half-life	5.5 h
CC(C)CC(=O)OC[C@H]1O[C@@](C#N)(c2ccc3c(N)ncnn23)[C@H](O)[C@@H]1O			human whole blood	5 µM		half-life	0.119 h
C[C@H]1CN(c2n[nH]c3nc(N[C@H]4CC[C@H](NS(=O)(=O)CCC(F)(F)F)CC4)ncc23)CCO1	SWI/SNF-related matrix-associated actin-dependent regulator of chromatin subfamily E member 1 (Homo sapiens, UniProt Q969G3)	Kinobeads competition, measured: SMARCE1		20 µM, unit not given	baseline: vehicle	remaining binding	1.2
CCCCCCCC(=O)N[C@@H](CCCCN)C(=O)N[C@@H](CCCCN)C(=O)N[C@@H](C)C(=O)N[C@@H](CC(C)C)C(=O)N[C@@H](CCCCN)C(=O)N[C@@H](CC(C)C)C(=O)N[C@@H](C)C(=O)N[C@@H](CCCCN)C(=O)N[C@@H](CCCCN)C(=O)N1CCC[C@H]1C(=O)N[C@@H](CC(C)C)C(=O)N[C@@H](CCCCN)C(=O)N[C@@H](CC(C)C)C(=O)N[C@@H](CC(C)C)C(=O)N[C@@H](CCCCN)C(N)=O			mouse ICR CD1 female, whole blood	intravenous bolus, 1 mg/kg		half-life	0.08 ± 0.03 h
COc1cc2c(Oc3ccc4[nH]c(C)cc4c3F)ccnc2cc1OCC1(N)CC1			paediatric recurrent refractory sarcoma	8 mg/kg		grade 3 Hypertension	6.7%
CC/C(=C(\c1ccccc1)c1ccc(OCCN(C)C)cc1)c1ccccc1			CD-1 mouse, male, lung	intraperitoneal, 10 mg/kg		half-life	5.62 h
CC[C@H](C)[C@@H]1NC(=O)[C@@H]2CCCN2C(=O)[C@H](CC(C)C)NC(=O)[C@H](CC(C)C)NC(=O)CNC(=O)[C@@H](NC(=O)[C@@H](NC(=O)[C@H](CC(=O)O)NC(=O)CNC(=O)[C@@H](NC(=O)[C@H](C)NC(=O)CNC(=O)[C@H](CCCCN)NC(=O)[C@H](CC(C)C)NC(=O)[C@H](CC(C)C)NC(=O)[C@H](CCCCN)NC(=O)CNC(=O)[C@@H](NC(=O)[C@@H](N)CC(C)C)C(C)C)C(C)C)C(C)C)CSSC[C@@H](C(=O)O)NC1=O		RNA-seq, measured: Fam174a	mouse, traumatic brain injury model, frontal cortex and hippocampus	dose not given	baseline: TBI alone	log2 fold change	-0.497
CCC(CNc1nc(-c2cn3ccnc3cc2C)nc2ccccc12)c1ccccc1 (stereo not shown)		LC-MS parent depletion	mouse liver microsomes			half-life	0.117 h
CCC[C@@](N)(CO)CCc1ccc(OCCCCCC(C)C)cc1			male hound dog, plasma	intravenous, 1.0 mg/kg, median		half-life	19.5 h
COc1cc(Nc2ncc(F)c(Nc3ccc4c(n3)NC(=O)C(C)(C)O4)n2)cc(OC)c1OC	XDH (Bos taurus, UniProt P80457)					IC50	> 10 µM
CC(C)C[C@@H](NC(=O)[C@H](Cc1ccccc1)NC(=O)CNC(=O)[C@@H](C)NC(=O)[C@H](Cc1ccc(O)cc1)NC(=O)[C@@H]1CCCN1C(=O)[C@@H]1CCCN1C(=O)c1ccc[n+](C)c1)C(=O)O			rat brain cortex homogenate	100 µM, pH 7.4, 37 °C		half-life	0.0667 h
CO[C@H]1C[C@@H]2CC[C@@H](C)[C@@](O)(O2)C(=O)C(=O)N2CCCC[C@H]2C(=O)O[C@H]([C@H](C)C[C@@H]2CC[C@@H](OC(=O)NCCOCCOCCOCCOCCOCCOCCOCCOCCC(=O)N3CCc4cc(Cn5nc(-c6ccc7oc(N)nc7c6)c6c(N)ncnc65)ccc4C3)[C@H](OC)C2)C[C@@H](O)[C@H](C)/C=C(\C)[C@@H](O)[C@@H](OC)C(=O)[C@H](C)C[C@H](C)/C=C/C=C/C=C/1C			advanced solid tumour patients	intravenous, 1.6 mg/3 mg weekly, grade ≥3		incidence of TRAE	40%

Repeated from above:
SMILES	target or system	test	test system	conditions	how to read	endpoint	result
CC(C)CC(=O)OC[C@H]1O[C@@](C#N)(c2ccc3c(N)ncnn23)[C@H](O)[C@@H]1O			human whole blood	5 µM		half-life	0.119 h
